# Published values from different studies.
# Parts stem from different laboratories: compare values within a part only. Changes are numbered by the printed parent chain.

# Study 1
# Target: Histone acetyltransferase KAT6A, both winged helices, GST fusion (KAT6A, Homo sapiens, UniProt Q92794, residues 1-181)
# Technique: protein binding microarray
# Form: double-stranded DNA, one strand shown
# Matrix: in vitro
# Concentration: not given
# Setting: 8-mer, flanks averaged, mean of 2 arrays, mostly near background
# Reference: not given
# Reading: higher = stronger binding
# Residues (chain): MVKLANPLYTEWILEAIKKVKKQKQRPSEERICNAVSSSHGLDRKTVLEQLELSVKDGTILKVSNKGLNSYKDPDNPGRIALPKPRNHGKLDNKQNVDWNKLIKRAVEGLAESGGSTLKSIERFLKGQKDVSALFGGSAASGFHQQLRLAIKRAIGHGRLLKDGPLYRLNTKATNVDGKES
Strand,E-score
AGACTTGG,-0.203
GTACCTGA,-0.0134
AGAAGCTA,-0.081
GGAATAAA,-0.105
ATACTTAC,-0.0464
AGCCAGAT,-0.263
ACCCCTAT,-0.112
AGAGCCGG,0.166
ATAGTGCC,-0.016
CTTGGCGC,0.168
CCCTCTAC,-0.224
TGGCGCCA,0.0922
CCAGGCAG,-0.145
CCCGCCAC,0.128
ACAGTCGA,-0.116
ACCGACCC,0.21
GGGTCATA,-0.0414
AACTGGAA,-0.216
ACACACTG,0.0186
AAGTACTT,0.0155
CAGCCTAA,-0.241
GGGCAGTA,-0.0603
AACCCAAT,-0.152
ACCACCAC,-0.222
ACGGCGTG,0.314

# Study 2
# Target: Interferon regulatory factor 5, full length, phosphomimetic (IRF5, Homo sapiens, UniProt Q13568-2, residues 1-514, S451D/S453D/S456D/S462D)
# Technique: protein-binding microarray
# Form: double-stranded DNA, one strand shown
# Matrix: in vitro
# Concentration: 940 nM top
# Setting: 60-bp whole probe
# With: salmon DNA 0.4 mg/ml
# Reference: random background probes
# Reading: higher = stronger binding
# All sequences stand within: GCCTAGCAC … GTCTTGATTCGCTTGACGCTGCTG
Strand,fitted relative affinity [z-score]
GACGAACTGAGTTTCAAGACGTGCTAG,0.303
TCATATTTGCTTCAGGTACTGTGCTAG,0.138
TCAAAAATCTTTGTTGGAACTGTGCTA,-0.137
GACGATATCAGTATCGTGACGTGCTAG,0.27
TCATTTTTTTCATTATTACTGTGCTAG,1.99
TAAGGTTTCCAATCAGCCCCGTGCTAG,-0.00582
GACGATCTCAGTCTCAAGACGTGCTAG,0.347
GACGATCTCAGAATGGAGACGTGCTAG,-0.0377
CTGGATCTCAGACTGTGTCCGTGCTAG,-0.534
TTAGCTTTCCTACTGCTTTAGTGCTAG,0.618
TACGATTTCAGACTGGAGACGTGCTAG,-0.159
GGAGGAGCGGGACTGCCACCGTGCTAG,-0.905
GACGGTTTCGCCTTTCGGGACGTGCTA,6.84
TTAGATTCCGGTTTCGATTAGTGCTAG,7.87
GACGATTTCAGTCTCGCGACGTGCTAG,0.669
TTAGACTCCAGTTTCGATTAGTGCTAG,8.59
GACGGTTTCGCGTTTCGGGACGTGCTA,4.38
GACGGTTTCGACATTCGGGACGTGCTA,6.57
GACGGTATCCTTATCATGACGTGCTAG,0.247
GACTGTCTCCTTCTCCTGACGTGCTAG,0.619
TTAAGTCTCCTTTTCCTTTAGTGCTAG,1.2
GACGAACTGGGGTATCGTGACGTGCTA,0.0795
TTAGATCTCAGACTGTATTAGTGCTAG,-0.406
GACGATATCCGTTTCGAGACGTGCTAG,1.13
TTAGATTTCAGACTCGATTAGTGCTAG,0.218

# Study 3
# Target: Prothrombin, mature alpha-thrombin (F2, Homo sapiens, UniProt P00734)
# Technique: aptamer microarray, sandwich
# Form: DNA with 2'F-ANA
# Matrix: in vitro
# Concentration: 200 nM
# Setting: whole 15-mer aptamer, many near background
# With: Cy3 exosite-II aptamer, 400 nM
# Reading: higher = stronger binding
# Strand: GGTTGGTGTGGTTGG
Modification,mean fluorescence intensity [a.u.]
2'F-ANA at 2 4 7 13 14 15,107
2'F-ANA at 1 5 6 7 9 10 13 15,48.1
2'F-ANA at 1 2 6 7 9 14 15,54
2'F-ANA at 1 4 9 11 12 13 14 15,83
2'F-ANA at 1 5 7 8 9 10 11 12 13 14,64.8
2'F-ANA at 1 2 3 4 8 9 10 11 15,55.3
2'F-ANA at 2 3 4 5 7 8 9 10 11 12 14 15,50.1
2'F-ANA at 1 2 5 8 9 11 13 14 15,46.2
2'F-ANA at 1 4 8 11 12 15,252
2'F-ANA at 1 4 6 10 11 14,50.1
2'F-ANA at 6 7 8 9 10 12 13 14,120
2'F-ANA at 1 2 3 4 6 11 14 15,57.1
2'F-ANA at 1 5 6 7 10 11 13 15,44.3
2'F-ANA at 2 3 10 11 12 14 15,278
2'F-ANA at 2 3 8 9 11 12 13 14 15,451
2'F-ANA at 1 2 4 5 7 11 12 15,79.5
2'F-ANA at 4 6 10 13,67.1
2'F-ANA at 2 10 11 15,127
2'F-ANA at 6 7 11 12,728
2'F-ANA at 1 2 3 7 8 9 11 13 14 15,76.4
2'F-ANA at 1 2 3 4 5 6 8 9 12 13 15,70.6
2'F-ANA at 1 2 3 4 5 7 8 10 15,48.3
2'F-ANA at 2 6 12,681
2'F-ANA at 2 4 5 6 7 9 11 12,110

# Study 4
# Target: ABI1, truncated, D143A, DHFR fusion (Arabidopsis thaliana)
# Technique: DHFR PCA, deep sequencing
# Matrix: yeast
# Setting: methotrexate growth selection, single substitutions
# With: (+)-ABA 0.11 µM
# Reference: wild-type fitted maximum
# Reading: higher = stronger binding
# Parent: PYL1, truncated, DHFR fusion (Arabidopsis thaliana); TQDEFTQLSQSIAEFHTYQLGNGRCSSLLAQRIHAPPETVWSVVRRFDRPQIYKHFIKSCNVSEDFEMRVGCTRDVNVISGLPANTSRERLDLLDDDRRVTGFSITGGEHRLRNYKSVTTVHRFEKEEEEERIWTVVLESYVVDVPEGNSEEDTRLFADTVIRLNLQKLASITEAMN
Substitution,relative binding score
G23K,20.7%
G148I,-7.12%
Y18V,2.91%
E129A,47%
E38C,0.593%
Q31R,11.8%
E125F,26.3%
V70G,2.17%
G21S,36.7%
D153Y,0.191%
A84S,37.1%
G71D,-1.43%
T73L,21.2%
T101P,-7.01%
T160K,-2.04%
C60M,4.58%
Y53V,-4.62%
V40Q,-4.98%
L28N,0.00227%
G23I,-0.186%
P36K,10.9%
L166G,5.61%
S150M,0.858%
L156G,0.369%
E131I,23.4%

# Some of these lines once more (study 4):
Substitution,relative binding score
L28N,0.00227%
T160K,-2.04%
C60M,4.58%
E131I,23.4%
G23K,20.7%
Y53V,-4.62%
A84S,37.1%
T101P,-7.01%
E38C,0.593%
G21S,36.7%
Q31R,11.8%
